Assay results gathered from unrelated publications.
Protocols differ between the studies behind these lines. Several values in a cell are separate wells, animals, samples, runs or records. ± gives the spread as reported.

CCOc1c([C@H](C)n2nc(C)c3c(N)ncnc32)cc(Cl)c(F)c1[C@@H]1CNC(=O)C1
share of ECG observations (refers to: QTcF > 500 ms; previously treated B-cell malignancy; oral, dose not given, baseline QTcF ≤450 ms, all doses): 0%

Cc1nc(-c2cnc(NC(C)C)n(C)c2=O)ccc1Oc1ccnc(-c2cnn(C)c2)c1
Tmax (Beagle dog, male, plasma; oral, 10 mg/kg, crossover study, mean): 0.83 h

O=C1CC[C@H](N2Cc3cc(N4CCN(CC5CCN(c6ccc([C@@H]7c8ccc(O)cc8CC[C@@H]7c7ccccc7)cc6)CC5)CC4)ccc3C2=O)C(=O)N1
Tlast (human, plasma; oral, 200 mg, median, range, with: rosuvastatin 10 mg): 73.5 h

N#Cc1ccc2c(c1)[C@H]1CCCN(C(=O)c3ccc4[nH]cnc4c3)[C@H]1C2
SHBG level (human females; 360 mg, day 7): 34.9 nmol/L

CC[C@@H]1CN(C(=O)NCC(F)(F)F)C[C@@H]1c1cnc2cnc3[nH]ccc3n12
Q/F (population PK model; human, plasma; oral, outliers excluded): 3.22 L/h

COc1ccc2[nH]c([S+]([O-])Cc3ncc(C)c(OC)c3C)nc2c1 (centres unmarked)
AUC(0-t) (healthy Chinese volunteers CYP2C19 RM, plasma; oral, 20 mg single dose, enteric-coated tablets): 598 ± 295 ng·h/mL

NC(=O)c1ncn([C@@H]2O[C@H](CO)[C@@H](O)[C@H]2O)c1O
pKa (basic): < 2

O=C(CCCCCCC(=O)Nc1ccc(CC[18F])cc1)NO
tissue uptake (athymic nu/nu male mice, LNCaP xenograft, brain; intravenous, 1 h): 0.7 ± 0.1 %ID/g

COc1cc2[nH]c(C)c(-c3ccc4c(c3)OCCO4)c(=O)c2cc1Cl
Papp (PAMPA; pH 7.4): 178 ×10⁻⁶ cm/s

CC(C(=O)NCC(=O)NCC(CNC(=O)CNC(=O)C(C)N1CCN(CC(=O)[O-])CCN(CC(=O)[O-])CCN(CC(=O)[O-])CC1)(CNC(=O)CNC(=O)C(C)N1CCN(CC(=O)[O-])CCN(CC(=O)[O-])CCN(CC(=O)[O-])CC1)CNC(=O)CNC(=O)C(C)N1CCN(CC(=O)[O-])CCN(CC(=O)[O-])CCN(CC(=O)[O-])CC1)N1CCN(CC(=O)[O-])CCN(CC(=O)[O-])CCN(CC(=O)[O-])CC1.[Gd+3].[Gd+3].[Gd+3].[Gd+3] (centres unmarked)
lanthanide tissue concentration (cynomolgus monkey, muscle; dose not given, day 58, PK group): 0.057 ± 0.078 nmol/g

COC(=O)C1=C(C)NC(C)=C(C(=O)OC(C)(C)CN(C)CCC(c2ccccc2)c2ccccc2)C1c1cccc([N+](=O)[O-])c1 (centres unmarked)
EC90 (Toxoplasma gondii; parasite growth; HFF, bradyzoite, alkaline-induced): 17.4 µM

CCCCCCCOc1ccc(CCC(N)(CO)CO)cc1C(F)(F)F.Cl
AUC(0-tau) (healthy men, plasma; oral, 0.125 mg, day 1): 0.525 ng·h/mL

COc1ccc([C@@H](O)c2cc(-c3ncnc4cc(N5CCOCC5)ccc34)c(F)cc2Cl)nn1
metabolism nutrition disorder TEAE (locally advanced rectal cancer patients; 250 mg, with: capecitabine and radiotherapy): 67%

CC(C)C[C@H](NC(=O)[C@@H](Cc1c[nH]c2ccccc12)NC(=O)[C@H](Cc1ccc(O)cc1)NC(=O)[C@H](CO)NC(=O)[C@H](Cc1c[nH]c2ccccc12)NC(=O)[C@H](Cc1c[nH]cn1)NC(=O)[C@@H]1CCC(=O)N1)C(=O)N[C@@H](CCCNC(=N)N)C(=O)N1CCC[C@H]1C(=O)NCC(N)=O
patients, drug-related reproductive TEAEs (Chinese CPP children, overall; intramuscular, 22.5 mg, 12 months, day 1, month 6): 4.5%

Cc1cc(C#N)cc(C)c1Oc1nc(Nc2ccc(C#N)cc2)nc(N)c1Br
maximum supersaturated concentration (solvent-shift UV; FaSSIF with 0.05% HPMC): 75 µg/mL

Cc1cc(-c2nccc3c2ccn3CC(=O)Nc2ccc(-c3cnccn3)cn2)ccn1
subjects with nasal discomfort (human; 5 mg once daily, multiple ascending dose): 12.5%

CCN1/C(=C/C(C)=O)Sc2ccc(F)cc21
QT interval (cynomolgus monkey; oral, 100 mg/kg, 6 h post-dose): 275 ± 36 ms

COc1ccc2c3c([nH]c2c1)[C@H](CC(C)C)N1C(=O)[C@H](CC(=O)NC(C)C)NC(=O)[C@@H]1C3
spleen to body weight ratio (wild-type mouse; oral, 100 mg/kg daily, 23 days): 0.27% and 0.26%

N[C@@H](Cc1cc(I)c(Oc2cc(I)c(O)c(I)c2)c(I)c1)C(=O)O
pKa (basic): 8.9

C[C@@H]1COCCN1c1cc(C2([S@](C)(=N)=O)CC2)nc(-c2cc[nH]c3nccc2-3)n1
Vomiting incidence (Japanese advanced solid tumour patients; oral, 240 mg twice daily, any grade): 16.7%

CC(C)(C(=O)N1CCOc2c(C#N)cncc2C1)C(F)F
subjects with adverse event (refers to: chest discomfort; human; oral, 10 mg once daily, 14 days, multiple ascending dose): 0%

Cc1c(-c2ccc(N3CCc4cccc(C(=O)Nc5nc6ccccc6s5)c4C3)nc2C(=O)O)cnn1CC12CC3(C)CC(C)(C1)CC(OCCNCC[C@H](O)CO)(C3)C2
QTcV interval change (beagle dog, male, anaesthetised; intravenous infusion, 0.3 mg/kg/min, 60 min; baseline: vehicle): 11 ms

CO[C@@H]1[C@H](O)[C@@H](CO)O[C@H]1n1c([N+](=O)[O-])nc2c(=O)[nH]c(N)nc21
nucleoside remaining fraction (depurination, RP-HPLC; citrate-phosphate buffer 0.5 mM; 110 min, pH 2, 37 °C): 0.899

C[C@@]1(c2cc(NC(=O)c3ccc(C#N)cn3)ccc2F)C=CSC(N)=N1
dose-normalised AUC(0-last) (elderly humans, both sexes, plasma; oral, 3 mg single dose): 77.1 ng·h/mL

CC(C)NC(=O)COc1cccc(-c2nc(Nc3ccc4[nH]ncc4c3)c3ccccc3n2)c1
AUC(0-last) (human male, plasma; oral, 200 mg once daily, day 13, fed, geometric mean, with: rosuvastatin): 13600 ng·h/mL

Nc1ccn([C@H]2CC[C@@H](CO)O2)c(=O)n1
selectivity index (HIV-1; MT4, IIIB wild type; baseline: CC50 over EC50): > 267

COc1ccc(C[C@@H](C)[C@@H](C)Cc2ccc(OC)c(OC)c2)cc1OC
Tmax (beagle dog male, plasma; oral, 1000 mg/kg/day, day 28, median): 1 h

CC[C@H](C)[C@H](NC(=O)CN)C(=O)N[C@@H](C)C(=O)N[C@@H](CCCCN)C(=O)N[C@@H](C)C(=O)N[C@H](C(=O)N[C@@H](CCCCN)C(=O)N[C@@H](CCCCN)C(=O)N[C@H](C(=O)N[C@@H](C)C(=O)N[C@@H](CCCCN)C(=O)N[C@@H](C)C(=O)N[C@@H](CC(C)C)C(=O)NCC(N)=O)[C@@H](C)CC)[C@@H](C)CC
mean residue ellipticity (circular dichroism at 222 nm; 30% TFE; 100 µM): -6520 deg cm2/dmol

CC(C)[C@@H](CS(=O)(=O)C(C)C)N1C(=O)[C@@](C)(CC(=O)O)C[C@H](c2cccc(Cl)c2)[C@H]1c1ccc(Cl)cc1
AUC(0-inf) (FVB mice Abcb1a/b Abcg2 knockout, plasma; intravenous, 20 mg/kg): 25000 ± 1400 ng·h/mL

CCO[C@H]1CCN(Cc2c(OC)cc(C)c3[nH]ccc23)[C@H](c2ccc(C(=O)O)cc2)C1
incidence of abdominal pain (PNH patients, active haemolysis; oral, 200 mg, 8 weeks, treatment): 0%

CN1C(=O)[C@@H](NC(=O)c2nnc(Cc3ccccc3)[nH]2)COc2cccnc21
participants with any serious TEAE (phase I single ascending dose; human, male and female; oral, 400 mg, fasted): 0%

O=C(O)c1cccc2ccccc12
maximum haemolysis (sheep erythrocytes; 1 h, pH 7.5): 6.49%

CC(=O)Oc1ccccc1C(=O)O
mean blood pressure (male Hartley guinea pigs, anaesthetized; intravenous, 3 mg/kg over 10 min, after infusion): 36 ± 0.1 mmHg

C[C@@H](O)CCOC(=O)C[C@@H](C)O
mean change (refers to: heart rate; human; oral, dose not given, 60 min post-dose vs pre-dose, unit not given; baseline: pre-dose): 4

CC(C)Nc1ccnc(Nc2cccc(-c3ccccn3)c2)n1
Papp (A to B) (MDCKII-WT cells; 10 µM, pH 7.4): 0.388 ± 0.29 ×10⁻⁶ cm/s

Cc1cc(-c2nnc(N)nc2-c2ccc(F)cc2)cc(Cl)n1
patients with treatment-related adverse events (refers to: Nausea; human phase Ia/Ib NSCLC, post-immunotherapy; oral, 100 mg once daily): 52.9%

CNC(=O)c1ccc(-c2cnc3ncc(Cc4ccc5ncccc5c4)n3n2)cc1F
upper abdominal pain incidence (all grades) (CTCAE v4.0, any causality; human cancer patients; oral, 600 mg twice daily, expansion, other tumours, RP2D): 6%

O=C(Nc1cnccc1Cl)N1CCN(Cc2ccc3c(c2)OC(F)(F)O3)CC1
AUC(0-tau) (healthy young men, plasma; oral, 75 mg once daily, day 10, dosing interval 24 h): 11300 ng·h/mL

CC(C)NCC(O)c1ccc(NS(C)(=O)=O)cc1 (racemic)
mean blood pressure (male Hartley guinea pigs, anaesthetized; intravenous, 10 mg/kg group, baseline before infusion): 37 ± 0.2 mmHg

CCO[C@H]1CCN(Cc2c(OC)cc(C)c3[nH]ccc23)[C@H](c2ccc(C(=O)O)cc2)C1
total Tmax (human moderate hepatic impairment, plasma; oral, 200 mg single dose, median): 1.5 h

CC(C)n1c(/C=C/C(O)CC(O)CC(=O)O)c(-c2ccc(F)cc2)c2ccccc21 (centres unmarked)
AUC(0-12 h) (human; oral, 20 mg, alone, control phase): 242 ± 83 ng·h/mL

Cc1ccc([C@@H]2O[C@H](CO)[C@@H](O)[C@H](O)[C@H]2O)cc1Cc1ccc(-c2ccc(F)cc2)s1
urinary phosphate excretion change (refers to: inorganic phosphorus; Japanese type 2 diabetes patients; 100 mg, day 4, 24 h urine collection; baseline: baseline): 76.5 mg

C[C@H]1O[C@@H](O[C@H]2CC[C@@]3(C)[C@@H](CC[C@]4(C)[C@@H]3C=C[C@]35OC[C@@]6(CCC(C)(C)C[C@H]63)[C@@H](O)C[C@]54C)[C@]2(C)CO)[C@H](O)[C@@H](O[C@@H]2O[C@H](CO)[C@@H](O)[C@H](O)[C@H]2O)[C@H]1O
plasma concentration (UHPLC-MS/MS; mouse, plasma; oral, 50 mg/kg, 8 h, pooled samples): 0 ng/mL

COc1ncc(-c2nc3c(n2C(C)C)[C@H](c2ccc(Cl)cc2)N(c2cc(Cl)cn(C)c2=O)C3=O)c(OC)n1
median half-life (human patients, plasma; oral, 250 mg, high-dose arm, cycle 2 day 1): 20.3 h

CO[C@@H]1[C@H](OC(=O)N2CC(CCN3CCOCC3)C2)CC[C@]2(CO2)[C@H]1[C@@]1(C)O[C@@H]1CC=C(C)C
prothrombin time change (human; dose not given, day 28, multiple ascending dose; baseline: baseline): 0.09 ± 0.37 s

COc1ccc2c(=O)n(C)c(-c3ccccc3)nc2c1
tissue concentration (Sprague-Dawley rat, skeletal muscle; oral, 30 mg/kg, 4 h): not detected

Cc1ccc(Sc2ccccc2N2CCNCC2)c(C)c1
participants with TEAE (refers to: abdominal pain; healthy adult men; oral, 10 mg daily, 12 days): 0%

O=[N+]([O-])c1ccc2c(c1)S(=O)(=O)C=C2
EC90 (Toxoplasma gondii; parasite growth; HFF, bradyzoite, glutamine-induced): 4.02 µM

C#Cc1cccc(Nc2ncnc3cc(OCCOC)c(OCCOC)cc23)c1
CL/F decrease (UPLC-MS/MS; Wistar rat, male, plasma; oral, four weeks, with: PPA 175 mg/kg, low dose; baseline: control): 53%

NC1(C(=O)N[C@@H](CCO)c2ccc(Cl)cc2)CCN(c2nc[nH]c3nccc2-3)CC1
incidence of Stomatitis (metastatic CRPC patients; 320 mg b.i.d., grade 3 to 4, treatment-related, with: enzalutamide 160 mg daily): 0%

Some of these lines once more:
CC(C)(C(=O)N1CCOc2c(C#N)cncc2C1)C(F)F
subjects with adverse event (refers to: chest discomfort; human; oral, 10 mg once daily, 14 days, multiple ascending dose): 0%

CC(C)Nc1ccnc(Nc2cccc(-c3ccccn3)c2)n1
Papp (A to B) (MDCKII-WT cells; 10 µM, pH 7.4): 0.388 ± 0.29 ×10⁻⁶ cm/s

Cc1cc(-c2nccc3c2ccn3CC(=O)Nc2ccc(-c3cnccn3)cn2)ccn1
subjects with nasal discomfort (human; 5 mg once daily, multiple ascending dose): 12.5%

CCO[C@H]1CCN(Cc2c(OC)cc(C)c3[nH]ccc23)[C@H](c2ccc(C(=O)O)cc2)C1
total Tmax (human moderate hepatic impairment, plasma; oral, 200 mg single dose, median): 1.5 h

Cc1nc(-c2cnc(NC(C)C)n(C)c2=O)ccc1Oc1ccnc(-c2cnn(C)c2)c1
Tmax (Beagle dog, male, plasma; oral, 10 mg/kg, crossover study, mean): 0.83 h

CC(C)NCC(O)c1ccc(NS(C)(=O)=O)cc1 (racemic)
mean blood pressure (male Hartley guinea pigs, anaesthetized; intravenous, 10 mg/kg group, baseline before infusion): 37 ± 0.2 mmHg

Cc1cc(-c2nnc(N)nc2-c2ccc(F)cc2)cc(Cl)n1
patients with treatment-related adverse events (refers to: Nausea; human phase Ia/Ib NSCLC, post-immunotherapy; oral, 100 mg once daily): 52.9%

O=C(CCCCCCC(=O)Nc1ccc(CC[18F])cc1)NO
tissue uptake (athymic nu/nu male mice, LNCaP xenograft, brain; intravenous, 1 h): 0.7 ± 0.1 %ID/g
